Published values from different studies.
Numbered parts are unrelated; each lists some results of a single study.

Set 1 — method: RNAcompete; form: RNA; sample: in vitro; tested at: 20 nM; notes: 7-mer, probes averaged, single round; relative to: mean of 7-mers; direction: higher = stronger binding
Target: PABPC1L2, full length, GST fusion (mouse, UniProt A0ABA7IW68)
Construct (chain): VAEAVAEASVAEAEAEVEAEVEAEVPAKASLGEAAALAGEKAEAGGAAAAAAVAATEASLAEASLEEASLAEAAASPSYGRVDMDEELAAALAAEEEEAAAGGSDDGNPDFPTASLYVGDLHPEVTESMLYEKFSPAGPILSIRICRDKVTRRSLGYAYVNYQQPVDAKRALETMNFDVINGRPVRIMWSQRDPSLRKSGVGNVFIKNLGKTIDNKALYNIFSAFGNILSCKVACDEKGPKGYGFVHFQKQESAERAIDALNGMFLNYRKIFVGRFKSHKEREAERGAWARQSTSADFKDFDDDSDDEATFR
Sequence | 7-mer Z-score
UUGCCGG | -0.206
UCGGGUG | -0.144
GGUCGUC | -0.434
UUCGCCC | -0.373

Set 2 — method: aptamer microarray, sandwich; form: DNA with 2'F-ANA; sample: in vitro; tested at: 200 nM; together with: Cy3 exosite-II aptamer, 400 nM; direction: higher = stronger binding; sequence: GGTTGGTGTGGTTGG
Target: Prothrombin, mature alpha-thrombin (F2, Homo sapiens, UniProt P00734)
Notes: whole 15-mer aptamer, many near background
Modification | mean fluorescence intensity
2'F-ANA at 5 6 9 10 13 15 | 73.3 a.u.
2'F-ANA at 2 3 4 5 6 8 13 | 82.2 a.u.
2'F-ANA at 3 8 10 13 14 | 344 a.u.
2'F-ANA at 9 11 12 | 669 a.u.
2'F-ANA at 2 3 4 5 6 7 9 10 11 13 14 | 139 a.u.
2'F-ANA at 1 2 7 9 10 14 15 | 103 a.u.

Set 3 — method: protein-binding microarray; form: double-stranded DNA, one strand shown; sample: in vitro; tested at: 250 nM; notes: 60-bp whole probe; together with: salmon DNA 0.4 mg/ml; relative to: random background probes; direction: higher = stronger binding; constant ends, left off below: GCCTAGCAC … GTCTTGATTCGCTTGACGCTGCTG
Target: Interferon regulatory factor 7, full length, phosphomimetic (IRF7, Homo sapiens, UniProt Q92985, residues 1-503, S101K/S471D/S472D/S475D/S476D/S477D/S483D/S484D/S487D)
Target sequence (chain): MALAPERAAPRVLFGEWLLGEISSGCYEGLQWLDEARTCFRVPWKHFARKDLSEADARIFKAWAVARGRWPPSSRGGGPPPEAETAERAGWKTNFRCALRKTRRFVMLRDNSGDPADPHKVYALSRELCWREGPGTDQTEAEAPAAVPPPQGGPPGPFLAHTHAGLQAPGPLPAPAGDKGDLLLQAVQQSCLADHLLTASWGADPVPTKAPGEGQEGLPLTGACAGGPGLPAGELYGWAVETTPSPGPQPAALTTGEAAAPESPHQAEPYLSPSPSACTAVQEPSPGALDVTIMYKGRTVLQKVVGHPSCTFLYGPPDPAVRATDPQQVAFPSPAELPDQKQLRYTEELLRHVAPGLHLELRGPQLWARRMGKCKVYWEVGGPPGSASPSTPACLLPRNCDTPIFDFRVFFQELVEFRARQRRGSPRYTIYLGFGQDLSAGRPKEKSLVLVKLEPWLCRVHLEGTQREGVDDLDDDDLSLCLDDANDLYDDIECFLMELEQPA
Sequence | log fluorescence [z-score]
TTAGGTTTCCTTATCCTTGAGTGCTAG | 2.63
TTAGGTAACGGGTATCGGTTAGTGCTA | 0.976
TTCATTATTGTCTTCCCCATGTGCTAG | 1.04
GACGGTATCCTTCTCCTTACGTGCTAG | 0.184
GACGGACTGGGTATCGGGAGGTGCTAG | -0.351
TTAGATATCAGTCTCGATTAGTGCTAG | 1.61
TTACGTTTCGACTATCGGTTAGTGCTA | 2.64
ATGAGTCTCAATATTAGAGTGTGCTAG | 0.0544
TTAGATCTTAGTTTCGATTAGTGCTAG | 9.56

Other studies, line by line
Molecule | target | test | system | setting | scale | endpoint | value
PhoQ, residues 284 288 289 292 302 303 ALSMDL | PhoP, residues 12 14 15 18 19 LHHSG (Escherichia coli, UniProt P23836) | Sort-seq, item: YFP reporter | E. coli | PhoQ-PhoP variant library, together with: 10 µM Mg2+ | relative to: high Mg2+ state, higher = stronger signaling | fold induction | 10.3

For quick reference, copied from above (set 1):
Sequence | 7-mer Z-score
GGUCGUC | -0.434
UUGCCGG | -0.206
UCGGGUG | -0.144
